# Experimental data of several laboratories.
# Parts stem from different laboratories: compare values within a part only.

# Block 1
# Target: Fragile X messenger ribonucleoprotein 1, C-terminal low-complexity region (Fmr1, Mus musculus, UniProt P35922)
# Method: RNA Bind-n-Seq
# Form: RNA
# Sample: in vitro
# Concentration: 200 nM
# Setting: whole 134-nt RNA, ends assumed
# With: 150 mM LiCl
# Relative to: input library
# Direction: higher = stronger binding
# All molecules: 7-deaza-guanosine replaces G
# Constant ends, left off below: GGGAGUUCUACAGUCCGACGAUC … UGGAAUUCUCGGGUGUCAAGG
Sequence,log2 enrichment
UAACUUUAGAGGAGGAUCUGAUGGAUAUGGCAGUGGACGUGGAUUAGGGGAUGGCUAUAAUGGGUAUGGAGGAGGACCUGGAGGUGGCAA,0.381
CCUCAAGUCCUGUGCUACACAUCGUAUGUACCGAAUCGGUGGUGGGGUGGGGAAAGUAUUAUGUUACGCCGUUCGGAUCUGCACUUCCAG,0.304
UGGGAGGUGGAUUUUGUUUAUUUUUUUAGCUCAUAUCCAGGGGUGGGAAUUUUUUUUUAAUAUGUGUCAUGAAUAAAGUUGUUUUUGAAA,0.699
CCUCAAGUCCUGUGCUACACAUCGUAUGUACCGAAUCGGUUGGUUGGUUGGGGAAAGUAUUAUGUUACGCCGUUCGGAUCUGCACUUCCA,-0.0568
GUCCUGUGCUACACAUCGUAUGUACCGAAUCGGGUUUUUUUGGGUGGGUUUUUUUGGGAAAGUAUUAUGUUACGCCGUUCGGAUCUGCAC,-0.472
ACCAUGCAGGUGGGCAUCUUUGGGAAAUGGGGCAAGGGGGGGAUAGGGAGGGGGGUAACACUUUGGGAACAGGUGGUCCCAGGUCGUUUC,1.48
UGGGGACAAGCUGACAGCAGCCAUGGCGAGCGGCAGUGGAGACAGCGUCACCCGUCGGAGCGUGGCAUCACAGUUUUUCACUCAAGAGGA,-1.76
ACCAUGCAGGUGGGCAUCUUUGGGAAGUGGGGCAAGGGAAAGAUAGGGAGGGGGGUAACACUUUGGGAACAGGUGGUCCCAGGUCGUUUC,0.638
GUCCUGUGCUACACAUCGUAUGUACCGAAUCGGAAAAAAGGAAAAAAGGGAAAAAAGGGAAAGUAUUAUGUUACGCCGUUCGGAUCUGCA,-0.282
UCCUGUGCUACACAUCGUAUGUACCGAAUCGGGGCCCCCGGGCCCCCGGGGCCCCCGGGGAAAGUAUUAUGUUACGCCGUUCGGAUCUGC,-3.05
CCUGUGCUACACAUCGUAUGUACCGAAUCGGGGUUUUUUGGGGUUUUUUGGUUUUUUGGGGAAAGUAUUAUGUUACGCCGUUCGGAUCUG,-0.422

# Block 2
# Target: RNA binding protein fox-1 homolog 2, RRM domain, GST-SBP tag (RBFOX2, Homo sapiens, UniProt O43251-10, residues 100-194)
# Method: RNA Bind-n-Seq
# Form: RNA
# Sample: in vitro
# Concentration: 365 nM
# Setting: natural RNA segment, single round, ends assumed
# Relative to: no-protein control
# Direction: higher = stronger binding
# Constant ends, left off below: GGGAGUUCUACAGUCCGACGAUC … UGGAAUUCUCGGGUGCCAA
# Target sequence (chain): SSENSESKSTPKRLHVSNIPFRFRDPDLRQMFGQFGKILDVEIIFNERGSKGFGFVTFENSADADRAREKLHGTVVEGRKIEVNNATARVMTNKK
Sequence,RBNS enrichment (R)
UGGGCCUUCUCAGCUCUCCACCCCCACCACUCUUGACUCAGGUGGUGUCCUUCUUCCUCAAGUCUUGACAAUUCCCGGGCCCUUCAGUCCCUGAGCAGUCUACUUCUGUG,0.383
AUGAUUUGUGGCAUCUCAACCAAGGGCCCCUGUGUGUGUGUGUUUGUGUGUGUGUACACAUAUCUGUGCCUGUGUGUCUUCCCUUGUGUCCAUAUUUAAUGUGUAAGAAC,1.2
ACAUAGGCUGAACAUUUUCCUAAAUUCUACCUGUGCAGACACUGAGGGGCUCUCUACCUUUGAAACUAUGAGAACGUCUUAAAUUAAUAUGAAUAUUUCUCUCCAUGUAU,0.498
UUCAUAUGUUUGAUGAAAACUGGCUCAAGAUGUUUGUAAAUAGAAUCAAGAGCAAAACUGCACAAACUUGCACAUUGGAAAGUGCAACAAGUUCCCGUGAUUGCAGUAAA,0.688
GCCUCAGUUAUGAAAUGACCAAGAAAAGUAUCUCAUAAAUAUUGUAUAUUACGUGAAAUGUGAAGUUAAAACUGAAGCUAAGAGUGUUUGUGGUUGUAAUUGUUUUUUUU,0.859
CUGGUAAAGUCCUGCUGUGCAGAUGACUGCUGUCUCCUGGGAAGGUCUCGGCACGGAGCUCUCGAGGCUGUGCAGACCUGCUCGUGGAGGGCUUAGGCUGUCUUAGGUGC,0.232
GGCUUCCAUUUGGAUGGGCCUGCCUUAACAUUGUUUGAAAUGCAGCGUGAGUAGCUCUUUUGUUUACUGUUUACACCCCUUAUUGGCAUGUCAACUCCUGUACUUCCCUU,0.369
CAUCUGAGCCAGGCCUAAUCCUCUAAUAGUGAUGGUUGGUUUGUCCUCCCAUAACUGCAGGUGGAUUCCACCUGGGGAAUGAGGCUGCGUGUCGGGCGUCUGCUGGCCCU,0.259
GUUGUUUUGUUUCCUUCGCCCUUUUCUUCUCUGUGUAAAGGCGAUUCCCUAGACCCAGGAUGGACCCUUCAGUUAUAGAAAUUUGUUUAUGGAACCCGGUGGCUCCCGUC,0.47
UUAAGUACAGAACUUGGUUUCUAACCGUAUUUAGUUUUAUAUGUGUAUUCAGACAGUUAGAGUUUUGGAAGCACACUGGUGAGUAGCUUUUUGCCCCUCCUUCCUUAGCA,0.929
CCCCCUGCCUGUCCCCAAAUUGAAGAUCCUUCCUUGCCUGUGGCUUGAUGCGGGGCGGGUAAAGGGUAUUUUAACUUAGGGGUAGUUCCUGCUGUGAGUGGUUACAGCUG,0.914
UCGAUUCUACUUUAGAAUGAGAGUGUGAAAUAGACAUUUGUAAAUGUAAAACUUUUAAGGUAUAUCAUUAUAACUGAAGGAGAAGGUGCCCCAAAAUGCAAGAUUUUCCA,0.818

# Block 3
# Target: Histone acetyltransferase KAT6A, winged helix 2, GST fusion (KAT6A, Homo sapiens, UniProt Q92794, residues 85-181)
# Method: protein binding microarray
# Form: double-stranded DNA, one strand shown
# Sample: in vitro
# Concentration: not given
# Setting: 8-mer, flanks averaged, mean of 2 arrays, mostly near background
# Relative to: not given
# Direction: higher = stronger binding
# Construct (chain): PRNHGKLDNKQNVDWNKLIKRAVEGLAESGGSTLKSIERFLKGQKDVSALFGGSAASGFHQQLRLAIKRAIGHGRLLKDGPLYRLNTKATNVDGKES
Sequence,E-score
AAGCCAAA,0.07
ACTACTTA,-0.175
AAGCCTTG,-0.0704
AGCCTGCA,0.163
GGCTAGGA,-0.0151
ATATCGCC,0.0884
CCCGGCCG,0.228
CATATAAC,-0.095
CCGCTTCC,0.0744
CTTCGTAA,-0.0236
CTGAATAC,-0.0367
AGACTGGA,-0.13
CACCCCCG,-0.0423
CAACCCAC,0.0637
CATTCAAA,0.124
CACAAATG,-0.104
ATACGCAC,0.146
TCTGGAAA,-0.0356
AGGCCTTC,0.0267
CTGGTGCA,-0.0434
CCAAAATC,0.0984
AAACGCCT,-0.188
ACCTTCGA,-0.0642
AAGGGGCT,0.0796
AGTTCTAT,-0.0433

# Block 4
# Target: RING finger protein unkempt homolog, zinc fingers 1-6, GST-SBP tag (UNK, Homo sapiens, UniProt Q9C0B0, residues 30-357)
# Chain of UniProt Q9C0B0 (30-357, looked up): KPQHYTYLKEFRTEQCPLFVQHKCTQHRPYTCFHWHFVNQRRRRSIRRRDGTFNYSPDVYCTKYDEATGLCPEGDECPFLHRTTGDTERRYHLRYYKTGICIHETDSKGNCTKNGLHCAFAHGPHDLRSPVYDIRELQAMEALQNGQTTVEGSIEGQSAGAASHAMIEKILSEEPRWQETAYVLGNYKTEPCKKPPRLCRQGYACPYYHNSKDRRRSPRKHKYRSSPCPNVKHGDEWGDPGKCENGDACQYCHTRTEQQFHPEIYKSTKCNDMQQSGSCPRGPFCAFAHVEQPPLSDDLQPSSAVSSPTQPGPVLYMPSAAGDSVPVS
# Method: RNA Bind-n-Seq
# Form: RNA
# Sample: in vitro
# Concentration: not given
# Setting: RNA with constant flanks, human-mouse chimeric sites, ends assumed
# Relative to: input RNA pool
# Direction: higher = stronger binding
# Constant ends, left off below: GGGAGUUCUACAGUCCGACGAUC … CAACAGAGGAUUGAGCAUCA
Sequence,bound/input enrichment
GGGGAGAAACCUUACGAAUGCGUUCAGUGUGGGAAAUCCUACAGUCAGAGCUCAAACCUCUUCAGACAUCAGAGACGACACAAUGCAGAAAAACUUUUGAAUGUUGUGAAGGUUUAAGAA,0.247 ratio
GAUCCACAGUGGUCUGAGGAGCAACUCAUUGCUGCAAAAUUCUGUUUUGCUGGCCUUCUUAUAGGCCAGACUGAAGUGGACAUCAUGAGUCAUGCCACACAAGCUAUAUUUGAAAUACUG,0.149 ratio
UAAGUCCUGUGCCAGCACUUCGCUCAUAAAGUUUUAAAUUCAAGAAAAAUAGUGUUUGUUUCCUGAUUAUUGUAUCCAAUACUUUGCCUAGUAUGUAACUCACUCUUACUGAUAAUAAAA,5.09 ratio
GUUCGGCUCUGGGAUCAUGCCACAAUGACAGAAGUGAAAUCUCUAAAUUUUAAUAUGUCUGUUAGCAGCAUGGAGUAUAUUCCUGAGGGAGAGAUUUUGGUUAUUACUUAUGGACGAUCU,0.379 ratio
AAAGAAAAUGGAGAAGUAAAGAUUUUACUGAAAAGUGGGAAGGAGAAACCAAAAACAAAUAUAGAAGACUUACAAAUUAAAAAAGUAAAGAAGAAAAAGAAAAAGAAACACAAAGAGAAU,14.5 ratio
GGCCUGGGACCGUCCUGGGCUAGUACAAAUAGCGGCAGUGGAGGCUCAGAGGAAAGUUUUGUUAGUGGAGGCAGUGGUAGAGGCCGUAUGUACGCUCCCUUUACUCGAUAGAUGUGUUCU,0.394 ratio
UAAGUUAUUUUGUACAGUAAGUUAUUUUCUUAACAUUUUUAUAUUGCCAUGUUUAUUUUGUUUGGGUAAUUUGGUUCAUUAAGUACAUAGCUAAGGUAAUGAACAUCUUUUUCAGUAAUU,2.32 ratio
GUUCGGCUCUGGGAUCAUGCCACAAUGACAGAAGUGAAAUCUCUGAAUUUUAAUAUGUCUGUUAGCAGCAUGGAGUAUAUUCCUGAAGGAGAGAUUUUGGUUAUAACUUAUGGACGAUCU,0.425 ratio
UUACCCGAGAACGAGGAUGAGCUGGAGAGCACCAACAGGCGCUACACCAAGAGGGACUGCAGCACUUUUCUCAGAACUAGCGAGACGGGCAUCGUGGACCAGGUCAUGGUCACUCUCAAC,0.17 ratio
UUACCCGAGAACGAGGAUGAGCUGGAGAGCACCAACAGGCGCUACACCAAGAGGGACUGUAGCACUUUCCUCAGAACUAGCGAGACGGGCAUCGUGGACCAGGUCAUGGUCACUCUCAAC,0.23 ratio
CAGUCCCCGUGUCCCAGUGCAGGACGAUGUGAACAAAAACUCAAAGCGGACCCUCUACUGUAGUUGAUGAUUCUCGAAAUGUGCUAUUAUUGUUUGUAAAAAAGGAAUUUUUUUUAAAGA,0.272 ratio

# For quick reference, copied from above (block 3):
Sequence,E-score
AGCCTGCA,0.163
GGCTAGGA,-0.0151
ATATCGCC,0.0884
CCCGGCCG,0.228
CATATAAC,-0.095
CCGCTTCC,0.0744
CTTCGTAA,-0.0236
CTGAATAC,-0.0367
AGACTGGA,-0.13
